Measurements gathered from unrelated publications.
Each numbered part is a random draw from the data of one study; scales do not carry over between parts. Substitutions count along the parent as printed.

Block 1 — target: CCNF, cyclin fold, Cln2 fusion (human); technique: yeast growth competition, sequencing; matrix: yeast; notes: strong parent motif; baseline: not given; reading: higher = stronger binding
Starting sequence: GMNC docking peptide (human); KNAKRNLSSEFAN; partner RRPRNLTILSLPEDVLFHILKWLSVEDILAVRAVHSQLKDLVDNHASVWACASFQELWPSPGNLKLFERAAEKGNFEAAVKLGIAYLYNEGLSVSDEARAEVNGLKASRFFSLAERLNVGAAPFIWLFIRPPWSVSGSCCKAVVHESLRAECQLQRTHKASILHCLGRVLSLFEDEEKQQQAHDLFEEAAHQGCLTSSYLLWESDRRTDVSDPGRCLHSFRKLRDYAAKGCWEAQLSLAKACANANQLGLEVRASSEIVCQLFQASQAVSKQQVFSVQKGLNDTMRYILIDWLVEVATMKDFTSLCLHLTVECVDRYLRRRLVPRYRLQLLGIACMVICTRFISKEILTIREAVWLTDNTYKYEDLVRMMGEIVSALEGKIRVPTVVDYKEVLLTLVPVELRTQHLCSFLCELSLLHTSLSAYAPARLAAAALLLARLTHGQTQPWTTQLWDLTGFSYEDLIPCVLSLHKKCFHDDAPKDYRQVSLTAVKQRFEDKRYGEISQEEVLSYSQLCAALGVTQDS
Substitution	normalised enrichment score
KNAKRNWSSEFAN [L7W]	0.343
KNAKRNLSTEFAN [S9T]	0.884
KNAKRNLSSEFQN [A12Q]	0.497
KNGKRNLSSEFAN [A3G]	0.562
KNAKRNLSGEFAN [S9G]	0.228
KNAMRNLSSEFAN [K4M]	0.382
KEAKRNLSSEFAN [N2E]	1.05
KNAKRNKSSEFAN [L7K]	0.331
KNAKRNLSSEFNN [A12N]	0.779
KNAKRNLSSEFYN [A12Y]	0.515
KQAKRNLSSEFAN [N2Q]	0.54
KNAKRNLSLEFAN [S9L]	2.03
KNAKRNLWSEFAN [S8W]	1.09

Block 2 — technique: protein-binding microarray; form: double-stranded DNA, one strand shown; matrix: in vitro; tested at: 2540 nM top; notes: 60-bp whole probe; together with: salmon DNA 0.4 mg/ml; baseline: random background probes; reading: higher = stronger binding; all sequences stand within: GCCTAGCAC … GTCTTGATTCGCTTGACGCTGCTG
Target: Interferon regulatory factor 3, full length, phosphomimetic (IRF3, Homo sapiens, UniProt Q14653, residues 1-427, S386D/S396D/S398D/S402D/T404D/S405D)
Residues (chain): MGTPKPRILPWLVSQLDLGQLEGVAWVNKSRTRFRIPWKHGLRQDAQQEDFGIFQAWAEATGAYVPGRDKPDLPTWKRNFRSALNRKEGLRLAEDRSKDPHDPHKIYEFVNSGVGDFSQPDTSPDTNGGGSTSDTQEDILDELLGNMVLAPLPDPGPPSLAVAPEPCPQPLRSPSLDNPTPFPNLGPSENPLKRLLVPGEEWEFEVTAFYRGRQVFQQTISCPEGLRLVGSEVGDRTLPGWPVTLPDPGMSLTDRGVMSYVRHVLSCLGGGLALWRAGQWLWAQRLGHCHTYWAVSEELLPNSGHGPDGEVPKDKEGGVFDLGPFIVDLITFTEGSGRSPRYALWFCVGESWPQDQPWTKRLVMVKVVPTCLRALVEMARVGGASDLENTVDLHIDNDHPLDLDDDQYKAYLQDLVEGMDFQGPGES
Strand	fitted relative affinity [z-score]
CATTTTCTGAATGTCCTCCTGTGCTAG	3.81
GAAGATTTCAGTTTCGAGACGTGCTAG	5.02
GACGGACTGGGACAGGGGACGTGCTAG	-0.668
GTCGGTCTCCTTCTCCTGACGTGCTAG	5.72
TCATCTCTGAAGACTCTCACTGTGCTA	0.682
TTAGGTATCCTAATGCTTTAGTGCTAG	4.07
TTAGGTTTCGACTATCTGTTAGTGCTA	2.28
TCATGTTTTTTTCTATAACTGTGCTAG	0.817
CCACATTTGATAAATCTTTGTGTGCTA	0.476
GGTACTCACCTCCAGGCTGAGTGCTAG	-0.0362
TTAGGTATCTACACTGGGTTAGTGCTA	-0.144
GTCGGTATCGGTCTCGGGACGTGCTAG	5.88
TCAGAAATCGGTGATCAGACTGTGCTA	-0.206
GTTAGTGGGATGGCTGTGGTGTGCTAG	-1.01
GACGGTCTCCTTTTCCTGAAGTGCTAG	5.02
TAAGGACTGGGGTATCGGTTAGTGCTA	0.0517
TTAGGTTTCGACACTGGATTAGTGCTA	2.62
TTAGAACTGGGGTTTAGATTAGTGCTA	-0.823
TTAGATTCCGGGACTGGATTAGTGCTA	0.361
TTAGGTATCTGGACTGGGTTAGTGCTA	-0.0868
GTCACTCTCTGGGCTGTGGGTGTGCTA	0.0943
TTAGGTCTACTACTGCTTTAGTGCTAG	-0.439

Block 3 — technique: DHFR PCA, dose-response; matrix: yeast; notes: Hill fit, mean, not affinity; together with: (+)-ABA, dose series; reading: lower = more sensitive
Target: ABI1, truncated, D143A, DHFR fusion (Arabidopsis thaliana, UniProt P49597)
Starting sequence: PYL1, truncated, DHFR fusion (Arabidopsis thaliana, UniProt Q8VZS8); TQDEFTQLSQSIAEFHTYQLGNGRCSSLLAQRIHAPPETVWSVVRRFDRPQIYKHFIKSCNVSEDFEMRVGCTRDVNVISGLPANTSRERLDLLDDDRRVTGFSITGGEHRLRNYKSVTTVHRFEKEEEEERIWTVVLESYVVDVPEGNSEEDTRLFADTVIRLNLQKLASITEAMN
Substitution	ABA EC50 [µM]
R46E	10.7
V43C	25.3
E147T	4.37
T73F	2.13
P36Q	8.91
S171H	1.48
D65P	2.79
Q19M	4.7
D48T	172
Y18G	23.4
D95A	120
R98Q	4.81
G71L	176
E174D	46.5

Block 4 — target: UBE2C UBC core domain (UniProt O00762); technique: yeast two-hybrid; matrix: yeast; notes: mostly zero background; baseline: not given; reading: higher = stronger interaction
B1: RNF111 RING domain (UniProt Q6ZNA4); chain EGTEEDTEEKCTICLSILEEGEDVRRLPCMHLFHQVCVDQWLITNKKCPICRVDIEAQLPSE
B2: NEURL1 RING domain (UniProt O76050); chain VTPGLGQWSDECTICYEHAVDTVIYTCGHMCLCYACGLRLKKALHACCPICRRPIKDIIKT
B3: TRIM4 RING domain (UniProt Q9C037); chain EAEDIQEELTCPICLDYFQDPVSIECGHNFCRGCLHRNWAPGGGPFPCPECRHPSAPAALRP
B4: TRIM13 RING domain (UniProt O60858); chain MELLEEDLTCPICCSLFDDPRVLPCSHNFCKKCLEGILEGSVRNSLWRPAPFKCPTCRKETSATGINS
Residues (chain): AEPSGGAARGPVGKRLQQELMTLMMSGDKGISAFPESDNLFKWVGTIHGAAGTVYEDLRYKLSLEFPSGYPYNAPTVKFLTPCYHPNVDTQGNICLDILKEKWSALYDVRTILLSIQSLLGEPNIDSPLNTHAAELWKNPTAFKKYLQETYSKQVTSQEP
Molecule	lacZ reporter activity
QVDKAVFHMQSVKCLKCQEQKRAVLPCQHAALCELCAEGSECPICQPGRAHTLQS (UNK RING domain (UniProt Q9C0B0))	0
B1 (RNF111 RING domain)	0
B2 (NEURL1 RING domain)	0
B3 (TRIM4 RING domain)	0
GAAPGPEAAECLVCSELALLVLFSPCQHRTVCEECARRMKKCIRCQVVVSKKLRPD (MIB2 RING domain (UniProt Q96AX9))	0
FQGDVDEDLICPICSGVLEEPVQAPHCEHAFCNACITQWFSQQQTCPVDRSVVTVAHLRP (RNF41 RING domain (UniProt Q9H4P4))	0
B4 (TRIM13 RING domain)	0

Block 5 — technique: RNA Bind-n-Seq; form: RNA; matrix: in vitro; tested at: 90 pmol; notes: 4-mer, random 30-nt RNA, single round; baseline: input library; reading: higher = stronger binding
Target: Eukaryotic initiation factor 4A-I (EIF4A1, Homo sapiens, UniProt P60842, residues 1-406, full length assumed)
Chain of UniProt P60842 (whole entry, looked up): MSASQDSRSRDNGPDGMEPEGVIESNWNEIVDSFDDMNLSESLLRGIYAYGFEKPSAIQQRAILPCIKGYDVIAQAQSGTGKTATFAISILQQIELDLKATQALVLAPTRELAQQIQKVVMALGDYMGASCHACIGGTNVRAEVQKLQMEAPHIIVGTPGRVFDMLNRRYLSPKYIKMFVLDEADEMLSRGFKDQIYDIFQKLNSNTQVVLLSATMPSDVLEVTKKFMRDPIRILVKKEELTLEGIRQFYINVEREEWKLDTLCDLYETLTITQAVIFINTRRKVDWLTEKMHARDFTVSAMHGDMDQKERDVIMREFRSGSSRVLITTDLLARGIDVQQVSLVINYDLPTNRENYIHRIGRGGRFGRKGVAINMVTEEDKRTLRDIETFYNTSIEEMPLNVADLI
Together with: 3 µM iPr-DMDA-PatA, 2 mM ADP, 2 mM phosphate
Strand	4-mer enrichment [fold]
GGUU	0.85
CAAC	1.1
ACGG	0.879
UUGA	1.21
AAAG	1.4
AUCA	1.23
AAAU	1.53
GUGG	0.708
CCCU	0.903
UCUA	1.14
GAGG	0.827
UGCC	0.768
CGAG	1.02
GAAG	1.11
CCUC	0.898
GCCC	0.759

Block 6 — technique: aptamer microarray, sandwich; form: DNA with 2'F-ANA; matrix: in vitro; tested at: 200 nM; together with: Cy3 exosite-II aptamer, 400 nM; reading: higher = stronger binding; strand: GGTTGGTGTGGTTGG
Target: Prothrombin, mature alpha-thrombin (F2, Homo sapiens, UniProt P00734)
Notes: whole 15-mer aptamer, many near background
Modification	mean fluorescence intensity
2'F-ANA at 2 5 7 12 13 14	57.1 a.u.
2'F-ANA at 2 3 4 6 9 11 12 13	510 a.u.
2'F-ANA at 3 8 9 12	1520 a.u.
2'F-ANA at 1 4 6 9 10 11 13 14	47.7 a.u.
2'F-ANA at 1 4 5 6 8 9 10 11 15	51.7 a.u.
2'F-ANA at 2 3 6 9 12 13 14	363 a.u.
2'F-ANA at 3 4 9 11 14	271 a.u.
2'F-ANA at 5 6 7 8 12 14 15	75.9 a.u.
2'F-ANA at 4 5 6 9 10 11 12 13	46.1 a.u.
2'F-ANA at 2 5 8 10 11 12 13 14 15	46.9 a.u.
2'F-ANA at 1 3 4 7 11 12	354 a.u.
2'F-ANA at 2 3 5 6 8 12	247 a.u.
2'F-ANA at 1 2 3 4 6 8 9 10 11 14	62.3 a.u.
2'F-ANA at 3 4 5 6 8 13 14 15	79.9 a.u.
2'F-ANA at 4 6 8 11 12 14 15	97.7 a.u.
2'F-ANA at 2 4 6 7 9 10 14	73 a.u.
2'F-ANA at 1 3 4 5 8 9 10 11 13 14 15	67.9 a.u.
2'F-ANA at 1 3 6 7 8 12 13	478 a.u.
2'F-ANA at 1 2 3 5 9 11 12 14 15	83.6 a.u.
2'F-ANA at 1 3 10 11 12 14 15	61.1 a.u.
2'F-ANA at 1 2 4 6 9 11 12 13	132 a.u.
2'F-ANA at 1 3 5 8 9 10 13 14	52.1 a.u.

Block 7 — technique: RNA Bind-n-Seq; form: RNA; matrix: in vitro; tested at: 200 nM; notes: whole 134-nt RNA, ends assumed; together with: 150 mM LiCl; baseline: input library; reading: higher = stronger binding; each molecule: 7-deaza-guanosine replaces G
Target: Ras GTPase-activating protein-binding protein 1, full length (G3BP1, Homo sapiens, UniProt Q13283)
Chain of UniProt Q13283 (whole entry, looked up): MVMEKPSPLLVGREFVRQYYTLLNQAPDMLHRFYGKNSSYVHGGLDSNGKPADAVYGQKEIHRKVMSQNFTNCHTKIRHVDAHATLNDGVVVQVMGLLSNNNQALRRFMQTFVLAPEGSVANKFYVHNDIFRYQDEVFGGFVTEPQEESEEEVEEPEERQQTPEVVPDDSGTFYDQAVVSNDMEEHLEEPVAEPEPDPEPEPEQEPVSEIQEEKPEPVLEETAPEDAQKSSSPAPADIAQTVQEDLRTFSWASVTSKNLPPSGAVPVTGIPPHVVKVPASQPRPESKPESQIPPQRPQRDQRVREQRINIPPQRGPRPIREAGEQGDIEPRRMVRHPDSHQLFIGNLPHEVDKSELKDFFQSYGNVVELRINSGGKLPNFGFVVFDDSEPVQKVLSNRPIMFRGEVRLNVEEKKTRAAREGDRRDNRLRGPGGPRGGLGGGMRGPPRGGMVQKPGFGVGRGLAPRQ
All sequences stand within: GGGAGUUCUACAGUCCGACGAUC … UGGAAUUCUCGGGUGUCAAGG
Strand	log2 enrichment
UGGCCCUGGUGGCAUGCGGGGAGGCAGAGGUGGCCUCAUGGAUCGUGGUGGUCCCGGUGGAAUGUUCAGAGGUGGCCGUGGUGGAGACAG	0.242
CAAGUCCUGUGCUACACAUCGUAUGUACCGAAUCGGGGAGGGGUUUGGGGAGGGGAAAGUAUUAUGUUACGCCGUUCGGAUCUGCACUUC	0.333
UUAUCUGUGGACUUCACCCAAAAGGAGUGGCAGCUACUGGAUCCCUCUCAGAAGAAUUUAUACAAGGAUGUGAUGUUGGAGAACUAUAGC	-1.63
UCAAGUCCUGUGCUACACAUCGUAUGUACCGAAUCGGAAAAGGAAAAGGAAAAGGAAAGUAUUAUGUUACGCCGUUCGGAUCUGCACUUC	-0.305
CCUGUGCUACACAUCGUAUGUACCGAAUCGGGGCCCCCCGGGCCCCCCGGGCCCCCCGGGAAAGUAUUAUGUUACGCCGUUCGGAUCUGC	-1.01
GUCCUGUGCUACACAUCGUAUGUACCGAAUCGGCCCCCCGGCCCCCCGGGGCCCCCCGGAAAGUAUUAUGUUACGCCGUUCGGAUCUGCA	-0.677
UCAAGUCCUGUGCUACACAUCGUAUGUACCGAAUCGGGAAGGGGAAGGGGAAGGAAAGUAUUAUGUUACGCCGUUCGGAUCUGCACUUCC	-0.739
UGUGCUACACAUCGUAUGUACCGAAUCGGGGUUUUUUUGGGGUUUUUUUGGUUUUUUUGGGGAAAGUAUUAUGUUACGCCGUUCGGAUCU	1.52
CAAGUCCUGUGCUACACAUCGUAUGUACCGAAUCGGAAAGGGGAAAGGAAAGGGGAAAGUAUUAUGUUACGCCGUUCGGAUCUGCACUUC	0.064
UAGCAUAUUGCCUUGUUCACUACCGAGGAGAUGAGAAGAUUAAAGGUUUCAUAUGGGAUCUCAUUACUCCAACUGAAGAUGGACAGACAC	0.813
CCUCAAGUCCUGUGCUACACAUCGUAUGUACCGAAUCGGGAGGGAGGGAGGGAAAGUAUUAUGUUACGCCGUUCGGAUCUGCACUUCCAG	0.0515

Repeated from above (block 5):
Strand	4-mer enrichment [fold]
ACGG	0.879
UUGA	1.21
AAAG	1.4
AUCA	1.23
AAAU	1.53
GUGG	0.708
CCCU	0.903
UCUA	1.14
GAGG	0.827
UGCC	0.768
CGAG	1.02
GAAG	1.11
